Published values gathered from unrelated publications.
Numbered parts are unrelated; each lists some results of a single study. Substitutions count along the parent as printed.

Study 1
Target: ABI1, truncated, D143A, DHFR fusion (Arabidopsis thaliana)
Technique: DHFR PCA, deep sequencing
Sample: yeast
Setting: methotrexate growth selection, single substitutions
Added: (+)-ABA 17 µM
Reference: wild-type fitted maximum
Direction: higher = stronger binding
Starting sequence: PYL1, truncated, DHFR fusion (Arabidopsis thaliana); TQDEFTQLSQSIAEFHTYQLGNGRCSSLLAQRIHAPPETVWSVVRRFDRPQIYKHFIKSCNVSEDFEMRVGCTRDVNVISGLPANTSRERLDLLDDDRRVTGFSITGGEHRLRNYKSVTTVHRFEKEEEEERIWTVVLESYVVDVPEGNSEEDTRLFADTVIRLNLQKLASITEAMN; partner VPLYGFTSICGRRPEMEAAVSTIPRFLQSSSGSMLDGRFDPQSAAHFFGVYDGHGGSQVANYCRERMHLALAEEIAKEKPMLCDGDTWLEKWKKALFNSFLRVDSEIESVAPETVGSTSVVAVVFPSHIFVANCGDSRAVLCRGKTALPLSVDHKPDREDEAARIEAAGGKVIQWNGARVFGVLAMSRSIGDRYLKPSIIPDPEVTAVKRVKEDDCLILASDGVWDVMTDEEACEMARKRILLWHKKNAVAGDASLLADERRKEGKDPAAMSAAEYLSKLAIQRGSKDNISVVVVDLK
Variant	relative binding score
S59D	86.7%
E67V	89.6%
F103M	28.9%
R113T	98.4%
P146I	15.1%
N114A	34%
A30M	89.5%
I172K	41.2%
H34C	82.3%
C72W	44.6%
E152P	44.7%
E14G	28.1%
N85K	94.7%
I105N	0.474%
V142I	81.8%
D159M	1.04%
F66S	70%
I12T	24.2%
R113V	86.2%
T17W	17.1%
R46I	2.62%
S171A	91.4%
T173V	81.7%
E152V	70.4%
G148K	45.8%

Study 2
Target: RING finger protein unkempt homolog, zinc fingers 1-6, GST-SBP tag (UNK, Homo sapiens, UniProt Q9C0B0, residues 30-357)
Technique: RNA Bind-n-Seq
Form: RNA
Sample: in vitro
Tested at: not given
Setting: RNA with constant flanks, human and mouse sites, ends assumed
Reference: input RNA pool
Direction: higher = stronger binding
Constant ends, left off below: GGGAGUUCUACAGUCCGACGAUC … CAACAGAGGAUUGAGCAUCA
Construct (chain): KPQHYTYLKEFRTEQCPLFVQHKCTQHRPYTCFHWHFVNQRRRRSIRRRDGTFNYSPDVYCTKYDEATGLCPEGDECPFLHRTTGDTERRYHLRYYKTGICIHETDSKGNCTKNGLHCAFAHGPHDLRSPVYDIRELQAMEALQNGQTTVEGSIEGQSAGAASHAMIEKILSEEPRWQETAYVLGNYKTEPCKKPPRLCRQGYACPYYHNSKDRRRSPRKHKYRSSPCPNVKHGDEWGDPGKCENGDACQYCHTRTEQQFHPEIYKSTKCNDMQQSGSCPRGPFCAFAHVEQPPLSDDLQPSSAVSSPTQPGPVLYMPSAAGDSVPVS
Sequence	bound/input enrichment [ratio]
CAUAUUAAAUAUGAUCCAGAAAUUAUUGGUCCCAGAGAUAUUAUCCAUACCAUCGGAAGCUUAGGCUUUGAAGCUUCUUUGGUCAAGAAAGAUCGAUCAGCCAACCACUUAGAUCAUAAA	0.397
UAUGCAGGGGACGGUCCCGGCCCUGUUCGUCCAUUCUGUAAAUAACUUGUAAAUAGUCUUUAGCAUUCCUCUUGUAACAAGAUUAAUUUUUAUGAAAUAAAUUAUAUUUCCUAGUCUAAU	12.1
CAUUAAUUUCAACACAUGGGAACACAUGUACAGAAGAUUUUUUUUUUUUUUUUUUUUUUUUUUAGCUACUCGAGAACUUUUCAUAGAUGAACUUUUUAACAAAUGUUUUCAUUUACAGGA	6.49
GGAAUAGCGGUGCUUGCAGUGCCUGUGGACAGUCGAUUCCUGCAAGUGAGCUCGUCAUGAGGGCCCAAGGCAACGUGUAUCAUCUCAAGUGUUUCACAUGUUCUACCUGCCGGAAUCGCC	0.126
UCUGGGUGCUGACAGACCGGCAGAGGGAAGAUCUCCUAUUGUGGAUUCCUGCUAUCUUAUAAUGAGUGACAUUUUGCCAUUAGAUGUCAUUGGUAGAAGAGUUGAAGUUAAUGGAGAAUA	0.381
UUGGAAGGACCAGAGCCUAAUCAACUGAAACCAUUAGUCAUACAGGCUAUGCCCACCCUAAUAGAACUAAUGAAAGACCCCAGUGUAGUUGUUCGAGACACAACAGCGUGGACUGUGGGC	0.339
GUCGAUGAGAUGAUCAGGGAAGCAGACAUUGACGGGGACGGUCAGGUAAACUACGAAGAGUUUGUACAAAUGAUGACAGCGAAGUGAAGACAUUGUACAGAAUGUGUUAAAUUUCUUGUA	0.292
GAGGCCAUGAGCUAUGCCGAGGUCAUGAGGCUGGUGAAGGGCAUGAACUUCUCGGUGGUGGUAUUUGACACGGCACCCACGGGCCACACCCUGAGGCUGCUCAACUUCCCCACCAUCGUG	0.0813
GAAGUGGUGAACCGACCUCCAACUCCUCCCCCACCAUACAGUGCCUUCCAGCUACAGCAGCAGCAGCUGCUGCCUCCACAGUGUGGCCCUGCAGGUGGCAGUCCCCCGGGCAUCGAUCCC	0.0719
GUUCGCUUGUAUCGUAAAGCAUUAGAAGUCUUCCCAGAGUUUGCUGCUGCCCAUUCAAAUUUAGCAAGUGUACUGCAGCAGCAGGGAAAACUGCAGGAAGCUCUGAUGCAUUAUAAGGAG	0.258
ACCCUGUCUGUAGGAGGAAAAACUGUAUCACGUUUUCGUAAAGCUACAUCCAUAUUGGAAUUUUACCGGGAACUUGGAUUGCCGCCGAAACAGACAGUUAAAAUCUUUAAUAUAACAGAU	0.262

Study 3
Target: Fragile X messenger ribonucleoprotein 1, C-terminal low-complexity region (Fmr1, Mus musculus, UniProt P35922)
Technique: RNA Bind-n-Seq
Form: RNA
Sample: in vitro
Tested at: 200 nM
Setting: whole 134-nt RNA, ends assumed
Added: 150 mM KCl
Reference: input library
Direction: higher = stronger binding
Constant ends, left off below: GGGAGUUCUACAGUCCGACGAUC … UGGAAUUCUCGGGUGUCAAGG
Sequence	log2 enrichment
CAAGUCCUGUGCUACACAUCGUAUGUACCGAAUCGGUUUUUGGAAAAAGGUUUGGAAAGUAUUAUGUUACGCCGUUCGGAUCUGCACUUC	-1.1
UGGGAGGUGGAUUUUGUUUAUUUUUUUAGCUCAUUUCCAGGGGUGGGAAUUUUUUUGUAAUAUGUGUCAUGAAUAAAGUUGUUUUUGAAA	0.44
UGGGAGGUGGAUUUUGUUUAUUUUUUUAGCUCAUUUCCAGGGGUGGGAAUUUUUUUUUAAUAUGUGUCAUGAAUAAAGAUGUUUUUGAAA	0.0151
AGUCCUGUGCUACACAUCGUAUGUACCGAAUCGGGAAAAAGGGUUUUUGGGUUUGGGAAAGUAUUAUGUUACGCCGUUCGGAUCUGCACU	-0.0579
CCUGUGCUACACAUCGUAUGUACCGAAUCGGGCCCCCCCGGCCCCCCCGGCCCCCCCGGGGAAAGUAUUAUGUUACGCCGUUCGGAUCUG	-0.497
AGUCCUGUGCUACACAUCGUAUGUACCGAAUCGGAAAAAAAGGAAAAAGGAAAAAGGAAAGUAUUAUGUUACGCCGUUCGGAUCUGCACU	-0.879
UAGUGAAAUUUCUAAUAUAUAUAUUUUUUUCUUUAGGAGAAGAAACGAAUGCAUCAGAUCAACAGAAUGAACCCCAGUUAGGCCUGAAAG	-0.556
CACAGACAACACGCACCCACACAGACACAGAGGGAAGGGGUUGGAAAGGGGACAGGGUGCACAGCAGGGCGGGGUAGGACCCCAGCCCCU	1.11
UUGUGAGAGCCACAGGAAAAGCAAGAAGGAGAAGAAGAAAAAGAAAAAGAGGAAACACAAGAAAGAGAAGAAGAAGAAAGACAAAGAGCA	0.201
CUGUGCUACACAUCGUAUGUACCGAAUCGGUUUUUUUGGGUUUUUUUGGGUUUUUUUGGGGAAAGUAUUAUGUUACGCCGUUCGGAUCUG	-0.731
CAAGUCCUGUGCUACACAUCGUAUGUACCGAAUCGGGGUUUGGUUUGGGUUUGGGGAAAGUAUUAUGUUACGCCGUUCGGAUCUGCACUU	0.177
GCAGGAAGUAAAAACAAAUGGAAAUGCCUCGGAUAGUGGCAGGGGUGGGGGUUGCUAAGGAAAGGGUGGGAUGGGAGUGGGUAAAGAGUU	0.348
UCAAGUCCUGUGCUACACAUCGUAUGUACCGAAUCGGGUUUGGGUUUGGGUUUGGAAAGUAUUAUGUUACGCCGUUCGGAUCUGCACUUC	-0.286
CAAUGGGAAUGGACCAAAGAGUUUCAGGGAAACUCCAGUAUAUUCCAGAGUCAGAUCUAAGCUCCAGGCACGCCUGAAGAUGUGUUGCUA	-0.0957

Study 4
Target: CCNE2, cyclin fold, Cln2 fusion (human)
Technique: yeast growth competition, sequencing
Sample: yeast
Setting: strong parent motif
Reference: not given
Direction: higher = stronger binding
Starting sequence: RBL2 docking peptide (human); STTRRRLFVENDS; partner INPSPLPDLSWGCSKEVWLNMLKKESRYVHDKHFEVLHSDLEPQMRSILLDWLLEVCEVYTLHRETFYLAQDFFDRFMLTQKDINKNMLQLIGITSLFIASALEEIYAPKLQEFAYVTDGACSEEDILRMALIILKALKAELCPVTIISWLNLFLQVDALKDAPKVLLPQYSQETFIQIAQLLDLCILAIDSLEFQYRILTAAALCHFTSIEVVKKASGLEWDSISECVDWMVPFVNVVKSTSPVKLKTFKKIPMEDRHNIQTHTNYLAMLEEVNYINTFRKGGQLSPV
Variant	normalised enrichment score
FTTRRRLFVENDS [S1F]	4
SCTRRRLFVENDS [T2C]	4.13
STTRRRLFKENDS [V9K]	3.4
STTRRRLFVENMS [D12M]	2.97
STTRRRLFQENDS [V9Q]	4.41
STTRARAFVENDS [R5A L7A]	-0.0514
STTNRRLFVENDS [R4N]	1.04
MTTRRRLFVENDS [S1M]	4.02
ETTRRRLFVENDS [S1E]	2.7
STTRRDLFVENDS [R6D]	0.362
STTRRRLFVEPDS [N11P]	4.56
STTRRRLFWENDS [V9W]	3.63
PTTRRRLFVENDS [S1P]	4.52
HTTRRRLFVENDS [S1H]	3.86
STRRRRLFVENDS [T3R]	0.889
STTRRRLFVENDK [S13K]	4
SNTRRRLFVENDS [T2N]	4.4
STTRRRLFVENDN [S13N]	3.39
STTHRRLFVENDS [R4H]	1.08
STTRRRQFVENDS [L7Q]	0.271
STTRRRLFVENDI [S13I]	4.47
STTRRRLFVDNDS [E10D]	5.45
SVTRRRLFVENDS [T2V]	3.45
STTRRRLWVENDS [F8W]	0.92
SPTRRRLFVENDS [T2P]	2.74

Some of these lines once more (study 2):
Sequence	bound/input enrichment [ratio]
CAUAUUAAAUAUGAUCCAGAAAUUAUUGGUCCCAGAGAUAUUAUCCAUACCAUCGGAAGCUUAGGCUUUGAAGCUUCUUUGGUCAAGAAAGAUCGAUCAGCCAACCACUUAGAUCAUAAA	0.397
UAUGCAGGGGACGGUCCCGGCCCUGUUCGUCCAUUCUGUAAAUAACUUGUAAAUAGUCUUUAGCAUUCCUCUUGUAACAAGAUUAAUUUUUAUGAAAUAAAUUAUAUUUCCUAGUCUAAU	12.1
CAUUAAUUUCAACACAUGGGAACACAUGUACAGAAGAUUUUUUUUUUUUUUUUUUUUUUUUUUAGCUACUCGAGAACUUUUCAUAGAUGAACUUUUUAACAAAUGUUUUCAUUUACAGGA	6.49
GGAAUAGCGGUGCUUGCAGUGCCUGUGGACAGUCGAUUCCUGCAAGUGAGCUCGUCAUGAGGGCCCAAGGCAACGUGUAUCAUCUCAAGUGUUUCACAUGUUCUACCUGCCGGAAUCGCC	0.126
UCUGGGUGCUGACAGACCGGCAGAGGGAAGAUCUCCUAUUGUGGAUUCCUGCUAUCUUAUAAUGAGUGACAUUUUGCCAUUAGAUGUCAUUGGUAGAAGAGUUGAAGUUAAUGGAGAAUA	0.381
